Measured values gathered from unrelated publications.
Every numbered part comes from another study and shows a few of its results, in no order. Values joined by “and” are separate records of one study, mostly repeats; a detail may differ.
Chain of UniProt Q00532 (whole entry, looked up): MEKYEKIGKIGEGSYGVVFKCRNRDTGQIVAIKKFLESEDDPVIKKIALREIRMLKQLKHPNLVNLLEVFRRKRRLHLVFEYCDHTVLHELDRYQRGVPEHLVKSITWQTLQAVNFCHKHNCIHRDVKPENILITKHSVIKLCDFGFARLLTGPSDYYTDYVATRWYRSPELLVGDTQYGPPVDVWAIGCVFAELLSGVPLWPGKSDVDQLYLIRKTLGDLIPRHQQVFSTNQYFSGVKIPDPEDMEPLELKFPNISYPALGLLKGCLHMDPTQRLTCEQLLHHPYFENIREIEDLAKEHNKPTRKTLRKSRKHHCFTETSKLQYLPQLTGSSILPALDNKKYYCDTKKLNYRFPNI
Chain of UniProt Q9P289 (whole entry, looked up): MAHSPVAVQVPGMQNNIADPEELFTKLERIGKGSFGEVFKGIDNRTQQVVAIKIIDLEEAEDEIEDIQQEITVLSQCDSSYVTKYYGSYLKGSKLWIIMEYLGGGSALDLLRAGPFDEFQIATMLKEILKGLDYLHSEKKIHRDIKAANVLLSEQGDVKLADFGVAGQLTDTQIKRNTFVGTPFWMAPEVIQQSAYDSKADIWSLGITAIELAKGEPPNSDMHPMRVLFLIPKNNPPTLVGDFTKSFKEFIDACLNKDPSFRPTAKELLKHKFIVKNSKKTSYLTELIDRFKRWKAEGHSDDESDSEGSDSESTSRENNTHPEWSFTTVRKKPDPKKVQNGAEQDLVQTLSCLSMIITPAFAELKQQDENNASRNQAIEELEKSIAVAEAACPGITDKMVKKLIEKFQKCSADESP
Chain of UniProt Q9BWU1 (whole entry, looked up): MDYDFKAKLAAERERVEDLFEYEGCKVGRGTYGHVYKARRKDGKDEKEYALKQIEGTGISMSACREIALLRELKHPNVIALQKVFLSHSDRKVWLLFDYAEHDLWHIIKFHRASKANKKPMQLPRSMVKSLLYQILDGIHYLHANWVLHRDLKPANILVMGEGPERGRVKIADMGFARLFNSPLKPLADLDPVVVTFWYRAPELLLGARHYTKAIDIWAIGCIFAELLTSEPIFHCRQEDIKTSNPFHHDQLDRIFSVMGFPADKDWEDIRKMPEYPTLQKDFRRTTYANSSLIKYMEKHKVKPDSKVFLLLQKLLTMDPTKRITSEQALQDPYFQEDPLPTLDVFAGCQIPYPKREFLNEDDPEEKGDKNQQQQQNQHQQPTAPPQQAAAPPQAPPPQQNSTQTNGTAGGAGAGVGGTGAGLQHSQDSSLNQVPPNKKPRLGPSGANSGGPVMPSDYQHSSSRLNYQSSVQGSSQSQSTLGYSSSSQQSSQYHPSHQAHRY
Chain of UniProt Q86UE8 (whole entry, looked up): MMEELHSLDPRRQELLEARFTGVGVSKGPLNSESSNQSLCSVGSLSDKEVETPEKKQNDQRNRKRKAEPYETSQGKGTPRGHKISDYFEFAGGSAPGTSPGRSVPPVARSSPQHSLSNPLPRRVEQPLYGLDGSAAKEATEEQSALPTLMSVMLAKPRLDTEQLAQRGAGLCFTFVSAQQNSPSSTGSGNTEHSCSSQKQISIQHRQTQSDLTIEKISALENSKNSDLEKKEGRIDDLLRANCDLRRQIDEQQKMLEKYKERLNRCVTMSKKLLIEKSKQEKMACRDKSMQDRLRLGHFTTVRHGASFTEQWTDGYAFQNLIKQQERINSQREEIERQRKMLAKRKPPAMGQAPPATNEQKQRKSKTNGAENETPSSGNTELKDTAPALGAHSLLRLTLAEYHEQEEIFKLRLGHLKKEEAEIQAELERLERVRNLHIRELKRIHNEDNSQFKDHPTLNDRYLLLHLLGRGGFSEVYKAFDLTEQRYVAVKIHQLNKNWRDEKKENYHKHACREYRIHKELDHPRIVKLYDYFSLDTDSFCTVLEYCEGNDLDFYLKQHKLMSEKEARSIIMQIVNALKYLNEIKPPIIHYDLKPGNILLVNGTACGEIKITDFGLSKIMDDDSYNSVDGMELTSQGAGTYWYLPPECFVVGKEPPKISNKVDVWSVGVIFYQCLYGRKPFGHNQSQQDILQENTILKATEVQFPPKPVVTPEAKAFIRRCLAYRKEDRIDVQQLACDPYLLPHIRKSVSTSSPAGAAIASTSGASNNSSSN
Chain of UniProt P27037 (whole entry, looked up): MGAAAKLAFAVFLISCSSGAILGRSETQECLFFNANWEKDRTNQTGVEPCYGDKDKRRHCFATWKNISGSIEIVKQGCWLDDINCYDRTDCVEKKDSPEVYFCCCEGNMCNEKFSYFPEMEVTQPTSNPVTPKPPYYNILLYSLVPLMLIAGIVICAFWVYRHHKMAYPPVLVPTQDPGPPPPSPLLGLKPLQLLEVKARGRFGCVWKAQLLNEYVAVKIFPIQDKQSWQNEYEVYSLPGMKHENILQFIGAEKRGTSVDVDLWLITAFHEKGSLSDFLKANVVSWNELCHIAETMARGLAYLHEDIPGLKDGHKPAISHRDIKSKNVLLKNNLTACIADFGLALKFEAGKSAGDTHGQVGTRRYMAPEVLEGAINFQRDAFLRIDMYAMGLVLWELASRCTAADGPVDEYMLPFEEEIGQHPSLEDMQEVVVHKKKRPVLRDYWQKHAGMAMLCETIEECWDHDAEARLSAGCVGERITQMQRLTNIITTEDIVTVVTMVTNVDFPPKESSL
Chain of UniProt P42684 (whole entry, looked up): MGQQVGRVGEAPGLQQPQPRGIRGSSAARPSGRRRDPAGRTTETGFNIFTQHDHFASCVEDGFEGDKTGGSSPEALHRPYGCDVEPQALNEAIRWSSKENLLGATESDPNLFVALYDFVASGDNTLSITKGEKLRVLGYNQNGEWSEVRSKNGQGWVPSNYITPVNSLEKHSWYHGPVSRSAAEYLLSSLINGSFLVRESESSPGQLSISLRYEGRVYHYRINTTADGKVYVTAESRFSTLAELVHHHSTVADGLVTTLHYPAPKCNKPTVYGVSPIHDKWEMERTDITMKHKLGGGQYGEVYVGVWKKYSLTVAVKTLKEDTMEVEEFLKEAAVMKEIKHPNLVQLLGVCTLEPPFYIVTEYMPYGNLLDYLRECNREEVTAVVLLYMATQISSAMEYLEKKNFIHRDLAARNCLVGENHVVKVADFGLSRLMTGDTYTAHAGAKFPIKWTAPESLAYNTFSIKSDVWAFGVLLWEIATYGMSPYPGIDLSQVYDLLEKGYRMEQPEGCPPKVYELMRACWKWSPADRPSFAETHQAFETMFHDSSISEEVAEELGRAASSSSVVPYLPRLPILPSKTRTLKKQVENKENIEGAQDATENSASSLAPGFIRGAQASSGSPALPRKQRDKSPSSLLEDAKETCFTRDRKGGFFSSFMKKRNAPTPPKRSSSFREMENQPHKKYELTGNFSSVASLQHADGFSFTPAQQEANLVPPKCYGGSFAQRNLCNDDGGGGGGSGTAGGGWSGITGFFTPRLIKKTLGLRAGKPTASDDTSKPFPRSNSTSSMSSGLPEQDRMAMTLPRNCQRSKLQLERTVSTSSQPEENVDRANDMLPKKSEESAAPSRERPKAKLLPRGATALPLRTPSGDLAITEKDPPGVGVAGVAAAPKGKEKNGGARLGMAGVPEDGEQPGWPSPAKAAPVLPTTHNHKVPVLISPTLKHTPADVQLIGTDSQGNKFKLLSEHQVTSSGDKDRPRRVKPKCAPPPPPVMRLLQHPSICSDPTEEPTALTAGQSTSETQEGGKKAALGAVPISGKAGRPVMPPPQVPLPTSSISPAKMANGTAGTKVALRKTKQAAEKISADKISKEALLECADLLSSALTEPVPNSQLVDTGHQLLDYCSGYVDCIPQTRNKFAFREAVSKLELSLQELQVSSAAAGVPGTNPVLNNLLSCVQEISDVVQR

Sample 1 — tested at: 1 µM
Compound: CC[C@@]1(c2cccc(-c3c(F)cncc3OC)c2)C2=C(Nc3n[nH]cc31)[C@H](F)C(C)(C)CC2=O (single isomer, unassigned)
target | test | scale | remaining binding [%]
STK26 (Homo sapiens, UniProt Q9P289) | binding, competition with immobilised ligand |  | 59
ABL2 (Homo sapiens, UniProt P42684) | binding, competition with immobilised ligand |  | 82
CDKL1 (Homo sapiens, UniProt Q00532) | binding, competition with immobilised ligand |  | 94
EGFR (Homo sapiens, UniProt P00533, G719S) | kinase binding, KINOMEscan | reference: DMSO control | 88
FLT3 (Homo sapiens, UniProt P36888, D835Y) | kinase binding, KINOMEscan | reference: DMSO control | 99
TLK2 (Homo sapiens, UniProt Q86UE8) | binding, competition with immobilised ligand |  | 95
ACVR2A (Homo sapiens, UniProt P27037) | binding, competition with immobilised ligand |  | 45
CDK19 (Homo sapiens, UniProt Q9BWU1) | KINOMEscan |  | 71

Sample 2 — organism: Leishmania donovani; effect on: parasite growth; cell line: THP-1; setting: intracellular, amastigote
Structure (SMILES) | IC50
Cc1ccc2nc3c(c(Nc4ccc(O)cc4)c2c1)CCC3 | 6.87 µM
Clc1ccc(Nc2c3c(nc4ccccc24)CCC3)cc1 | 11.5 µM
COc1cccc(Nc2c3c(nc4ccccc24)CCC3)c1 | 7.41 µM
COc1cc(Nc2c3c(nc4ccccc24)CCC3)cc(OC)c1OC | 8.41 µM
COC(=O)c1cccc(Nc2c3c(nc4ccccc24)CCC3)c1 | 7.54 µM
CCOC(=O)c1ccc(Nc2c3c(nc4ccccc24)CCC3)cc1 | 9.57 µM
CCOc1ccc(Nc2c3c(nc4ccc(Cl)cc24)CCC3)cc1 | 3.98 µM
COC(=O)c1ccc(Nc2c3c(nc4ccccc24)CCC3)cc1 | 9.87 µM

Single results of other studies
SMILES | tested on | test | test system | conditions | endpoint | value
Cc1ccc(O)c(C)c1-c1cnc2[nH]c(-c3cnc(N4CCC(CN5CCN(c6ccc(C(=O)NC7CCC(=O)NC7=O)c(F)c6)CC5)CC4)nc3)cc2c1C#N (racemic) | HCC1569 | in-cell western, measured: CDK1 phospho-Thr14 |  | 370.37 nM | pCDK1 (Thr14) level | 61.8% and 63.3%
Cn1cc(-c2cccc(CN3CCC4(CC3)COc3c4ccc4c3CN([C@H]3CCC(=O)NC3=O)C4=O)c2)cn1 | human Treg:Teff co-culture |  |  | concentration not given, Treg suppression | proliferating CD8+ Teff cells | 59.7% and 60.9% and 85.4% and 90.3% and 69.1% and 92.3% and 82% and 37.8%
CCCCC[C@@H]1CC(=O)N[C@@H](C(C)C)C(=O)N[C@H](CCCNC(=N)N)C(=O)N[C@@H](CO)C(=O)NCC(=O)N(C)[C@H](Cc2ccccc2)C(=O)N[C@@H](CC(C)C)C(=O)N[C@H](CCCNC(=N)N)C(=O)N[C@@H](CC(N)=O)C(=O)N[C@H](C(C)C)C(=O)N[C@H](Cc2c[nH]c3ccccc23)C(=O)NCCCC(=O)O1 | Staphylococcus aureus |  | USA300 | with: menaquinone 32 µg/mL | MIC | > 64 µg/mL

Some of these lines once more (sample 1):
target | test | scale | remaining binding [%]
FLT3 (Homo sapiens, UniProt P36888, D835Y) | kinase binding, KINOMEscan | reference: DMSO control | 99
EGFR (Homo sapiens, UniProt P00533, G719S) | kinase binding, KINOMEscan | reference: DMSO control | 88
STK26 (Homo sapiens, UniProt Q9P289) | binding, competition with immobilised ligand |  | 59
